Experimental data gathered from unrelated publications.
Every numbered part comes from another study and shows a few of its results, in no order. Positions count from the first letter of the parent shown.

Block 1
Target: Interferon regulatory factor 5, full length, phosphomimetic (IRF5, Homo sapiens, UniProt Q13568-2, residues 1-514, S451D/S453D/S456D/S462D)
Technique: protein-binding microarray
Molecule type: double-stranded DNA, one strand shown
Matrix: in vitro
Concentration: 940 nM top
Notes: 60-bp whole probe
Together with: salmon DNA 0.4 mg/ml
Baseline: random background probes
Direction: higher = stronger binding
Measurement: fitted relative affinity
Constant ends, left off below: GCCTAGCAC … GTCTTGATTCGCTTGACGCTGCTG
GACGATCTCAGTTTCGAGGCGTGCTAG: 3.84 z-score
GACGTTTCCCTTTTCCTGACGTGCTAG: 1.9 z-score
TCATAATTCTCTTTTCAACTGTGCTAG: 1.56 z-score
TCATATATCTTATCCTAACTGTGCTAG: 1.19 z-score
TCAGTTACCCCTCATCAAACTGTGCTA: 0.749 z-score
AGGAAGATCATTCTCACTGCGTGCTAG: 0.371 z-score
GAAGGTATCCTTATCCTGACGTGCTAG: 0.178 z-score
GACGAACTGAGACAGGAGACGTGCTAG: -0.321 z-score
TCATTTTTTTTTTTTACACTGTGCTAG: 1.76 z-score
TTAGGACTGCACACTGGGTTAGTGCTA: -0.417 z-score
TTGGATATCGGGTATCGATTAGTGCTA: 2.65 z-score
GACGCTTTCGGGTATCGAGACGTGCTA: 4.09 z-score
GACGATGTCAGTTTCGAGACGTGCTAG: 3.71 z-score
GACGGACTGCTTCCCCTGACGTGCTAG: -0.381 z-score
TTAGAACTTAGACTGGATTAGTGCTAG: -0.545 z-score
TTACGTATCGACTTTCGGTTAGTGCTA: 5.44 z-score
AAAGTTATCACTTCCAAAGTGTGCTAG: 0.406 z-score
TCAATTTTCGTTTTTATACTGTGCTAG: 2.14 z-score
GACGATTTCTGTATCGAGACGTGCTAG: 1.58 z-score
TAAGGTTCCCTTTTCCTTTAGTGCTAG: 0.617 z-score
TTAGATTACAGTTCCGATTAGTGCTAG: 1.22 z-score
TCATGACTGGAGTCTGGAACTGTGCTA: -0.401 z-score
GACGGTCTCCTTAACCTGACGTGCTAG: 0.336 z-score
TATATTATATATTTATGTATGTGCTAG: 0.0898 z-score
GAGGAACTGAGACTGGAGACGTGCTAG: -0.684 z-score

Block 2
Target: Ras GTPase-activating protein-binding protein 1, full length (G3BP1, Homo sapiens, UniProt Q13283)
Sequence of UniProt Q13283 (whole entry, looked up): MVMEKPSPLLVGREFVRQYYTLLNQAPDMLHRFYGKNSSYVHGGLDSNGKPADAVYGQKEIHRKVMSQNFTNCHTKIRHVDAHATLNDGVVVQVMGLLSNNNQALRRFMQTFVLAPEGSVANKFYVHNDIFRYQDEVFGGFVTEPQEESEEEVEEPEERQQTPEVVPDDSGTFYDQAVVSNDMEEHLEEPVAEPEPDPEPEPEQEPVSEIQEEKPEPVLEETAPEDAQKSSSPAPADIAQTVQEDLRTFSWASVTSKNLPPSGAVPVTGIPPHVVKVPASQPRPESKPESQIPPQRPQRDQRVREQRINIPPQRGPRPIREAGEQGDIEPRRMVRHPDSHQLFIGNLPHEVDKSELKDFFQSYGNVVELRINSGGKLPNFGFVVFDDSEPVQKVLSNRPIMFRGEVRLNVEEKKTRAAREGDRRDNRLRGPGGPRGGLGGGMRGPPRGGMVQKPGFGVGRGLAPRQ
Technique: RNA Bind-n-Seq
Molecule type: RNA
Matrix: in vitro
Concentration: 200 nM
Notes: whole 134-nt RNA, ends assumed
Together with: 150 mM LiCl
Baseline: input library
Direction: higher = stronger binding
Measurement: log2 enrichment
All molecules: 7-deaza-guanosine replaces G
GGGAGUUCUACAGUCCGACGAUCCUGUGCUACACAUCGUAUGUACCGAAUCGGGAAAAAAAGGAAAAAAAGGGAAAAAAAGGGGAAAGUAUUAUGUUACGCCGUUCGGAUCUGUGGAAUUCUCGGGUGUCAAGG: 0.0263
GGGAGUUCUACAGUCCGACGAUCACCAUGCAGGUGGGCAUCUUUGGGAAGUGGGGCAAGGGGGGGAUAGGGAGGGGGGUAACACUUUGGGAACAGCUGGUCCCAGGUCGUUUCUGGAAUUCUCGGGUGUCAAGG: 0.23
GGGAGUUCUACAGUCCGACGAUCGUCCUGUGCUACACAUCGUAUGUACCGAAUCGGGGUUUUUGGGGUUUUUGGGGAGGGGAAAGUAUUAUGUUACGCCGUUCGGAUCUGCACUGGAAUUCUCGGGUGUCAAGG: 0.155
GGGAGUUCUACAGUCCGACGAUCUAACUUUAUAGGAGGAUCUGAUGGAUAUGGCAGUGGACGUGGAUUUGGGGAUGGCUAUAAUGGGUAUGGAGGAGGACCUGGAGGUGGCAAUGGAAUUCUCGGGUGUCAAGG: -0.673
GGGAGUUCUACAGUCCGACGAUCGUCCUGUGCUACACAUCGUAUGUACCGAAUCGGGGUUUUGGGGUUUUGGGUUUUGGGGAAAGUAUUAUGUUACGCCGUUCGGAUCUGCACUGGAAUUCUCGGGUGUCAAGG: -0.00271
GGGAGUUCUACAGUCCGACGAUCAAGUCCUGUGCUACACAUCGUAUGUACCGAAUCGGGUUUGGGAGGGUUUUUUUGGGAAAGUAUUAUGUUACGCCGUUCGGAUCUGCACUUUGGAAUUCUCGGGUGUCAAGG: -0.0247
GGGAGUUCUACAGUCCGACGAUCUCUGAGGUCACCAAGCCUCCUCCUUGCUUGGAGAACUCCUCGCCUCCCUCCAGGAUUCCGGAGCCUGAAUCCCCAGCGAAGCCAAACGUCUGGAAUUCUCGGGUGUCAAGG: -0.0464
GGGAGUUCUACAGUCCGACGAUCGUCCUGUGCUACACAUCGUAUGUACCGAAUCGGGGUUUGGGGAAAAAGGGGAAAGGGGAAAGUAUUAUGUUACGCCGUUCGGAUCUGCACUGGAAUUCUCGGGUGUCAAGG: 0.205
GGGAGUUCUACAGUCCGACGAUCACCAUGCAGGUGGGCAUCUUUGGGAAGUGGGGCAAGGGGGGGAUAGGGAGGGGGGUACCACUUUGGGAACAGGUGGUCCCAGGUCGUUUCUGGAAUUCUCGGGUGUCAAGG: 0.22
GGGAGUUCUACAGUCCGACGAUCCAAGUCCUGUGCUACACAUCGUAUGUACCGAAUCGGAAAGGUUUGGAAAAAAAGGAAAGUAUUAUGUUACGCCGUUCGGAUCUGCACUUCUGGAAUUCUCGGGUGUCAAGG: -1.14
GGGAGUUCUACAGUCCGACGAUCCCUCAAGUCCUGUGCUACACAUCGUAUGUACCGAAUCGGGUGGGUGGGUGGGAAAGUAUUAUGUUACGCCGUUCGGAUCUGCACUUCCAGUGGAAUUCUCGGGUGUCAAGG: 0.287

Block 3
Target: Histone acetyltransferase KAT6A, winged helix 2, GST fusion (KAT6A, Homo sapiens, UniProt Q92794, residues 85-181)
Technique: protein binding microarray
Molecule type: double-stranded DNA, one strand shown
Matrix: in vitro
Concentration: not given
Notes: 8-mer, flanks averaged, mean of 2 arrays, mostly near background
Baseline: not given
Direction: higher = stronger binding
Measurement: E-score
Target sequence (chain): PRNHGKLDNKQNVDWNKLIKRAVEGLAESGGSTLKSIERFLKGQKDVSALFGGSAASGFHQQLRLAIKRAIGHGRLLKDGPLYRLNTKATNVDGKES
AAAATGCA: 0.0523
ACGAAACC: 0.0823
ACTCGTAT: 0.0323
CTTTGCGC: 0.158
AAAAGTAC: 0.0247
AGGACCTG: -0.0159
CCGTGAGC: 0.0447
ATCGAATC: 0.0195
AGACCCGG: 0.0477
CTACGGGA: -0.057
AGCCGCCG: 0.133
ACCATCAG: -0.124
ATGGGACC: -0.0964
CCGGGTGA: 0.115
ACAATCGG: -0.0564
AGGCGCAC: 0.0856
CACCTCGG: 0.0436
GGCTCACC: -0.00317
GCAGGACA: 0.159

Block 4
Target: RNA binding protein fox-1 homolog 2, RRM domain, GST-SBP tag (RBFOX2, Homo sapiens, UniProt O43251-10, residues 100-194)
Technique: RNA Bind-n-Seq
Molecule type: RNA
Matrix: in vitro
Concentration: 365 nM
Notes: natural RNA segment, single round, ends assumed
Baseline: no-protein control
Direction: higher = stronger binding
Measurement: RBNS enrichment (R)
Residues (chain): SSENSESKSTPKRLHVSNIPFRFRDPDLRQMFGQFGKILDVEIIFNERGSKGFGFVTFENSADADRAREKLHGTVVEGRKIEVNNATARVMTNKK
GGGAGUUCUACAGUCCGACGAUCGUAAGAGCAGAGCACCUCCCACUGGGGGUGGGGUAUUUAAAAAUUAACUCAUUAGUAUCAUAAACGUCAAGGAUUGAUUGGACCAGGCAAGAGCCAUGUUUUUGAGAAGGUGGAAUUCUCGGGUGCCAA: 0.695
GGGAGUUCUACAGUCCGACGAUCCAUAGCUCUUAAACCGUGUGGGUGAAUGGUGUCUAAUUGCACCCCUUUGUGUUCUCACUUGCAUAAAGCUAUUCAAGGUACUUUUUAAAAGGCAAGGGUUGAUCCCCGCAUGGAAUUCUCGGGUGCCAA: 0.84
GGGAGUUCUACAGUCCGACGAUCCUUUUCAUUUGGGGGUUUUUGGGGAAAAAAUUUAUUUUUGGUUCCAAAUAGAAAAACAAAACCUAUUUUGAUCUUUAGUGCAAACGAGGGCUAGGGACUUAGCCUCCUCCUGGAAUUCUCGGGUGCCAA: 0.383
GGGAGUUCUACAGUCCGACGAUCUGAGAAACCUGUAUCUUUCUAUGCUGCUUUUAUAUCUGUAUGUAUUAGUGAUAUUUCUCUAGUAGUUAAAAAAAAAAAAAAAGAAAAAAAAAACUUUUUUGGUUGUCCUCUGGAAUUCUCGGGUGCCAA: 1.33
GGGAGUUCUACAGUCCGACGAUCAGCAAUUGGUGUUUCUAUGUGUUUUCUAAAUAGAGAUGAUAUCUUUUUUUUUUUCACUUAGAAUUUAGCUCCAUUUGCUUGAGAGAGGGGGAAAAAUUCAUAUCUGUUUCUGGAAUUCUCGGGUGCCAA: 0.594
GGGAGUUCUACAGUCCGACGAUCUUCUAAAAAAUGUCAGGUUUUUAAAAUCAUUUACCUUAUUAAAAUGAAAAGUGCCAUACUUAACUUUUAAAGGAAAGACCUGACUUGCUUUUUCUCUAUUUAGACUGUUUUGGAAUUCUCGGGUGCCAA: 0.41
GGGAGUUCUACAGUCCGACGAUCUAGUGUCCCAGUACAAAAAGGCUGUAAGAUAGUCAACCACAGUAGUCACCUAUGUCUGUGCCUCCCUUCUUUAUUGGGGACAUGUGGGCUGGAACAGCAGAUUUCAGCUAUGGAAUUCUCGGGUGCCAA: 0.43
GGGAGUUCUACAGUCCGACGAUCUUCAUUCAUCCUUAACGGUGUGGAAGGGUUGAUGGACUGGAAAGCAAGUGGUUGGUUCGCGUUGGCGGGUGACAGGUGCUGCGGUUGGAGACGGUGGGAUGGGAGAAGAGUGGAAUUCUCGGGUGCCAA: 0.627
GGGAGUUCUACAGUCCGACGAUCACUUUGUACCUUUCCCCUGAUUUUUAAACCCUUUUUCUAAACAGACUGACUUUCUUACAAAAUGCAUUUGGAAACCAGACCUUUGCUACCCACCAAUGUCUCUGGGUUUUUGGAAUUCUCGGGUGCCAA: 0.883
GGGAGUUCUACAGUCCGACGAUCAGCUCCAAGAAGUCAGCACACCUGCAUUUUAGCUCUGCAUGCAGCCCCAGCAGGCUGCGUGUUUAAGAAUUUCAUUGUUUAACUGGCUGGUGUGAGAAGUCUUCCGUUAGUGGAAUUCUCGGGUGCCAA: 0.308
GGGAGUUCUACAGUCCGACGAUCCCUGUGGGUUCUUGCCCAUCAGGGUAAUUGUAUUGAGAACUCAAAUAUACGUGCACUUACAUGUGUGGUUCGUACUCAAGUGAUCUAUUAUCUAGCUGCAAAGCCUGGCUUGGAAUUCUCGGGUGCCAA: 0.256
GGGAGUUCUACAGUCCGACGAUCGUGUACAGUAUGUGUGGAAUAAAAAAGGGAAACUGUUUUCACAAGCUGUUGUUUGUUUCAUAAUUGGAUCAGUCCAUAGCUACCCACAUUGCACUGAGCUUGCCAGUGGUUGGAAUUCUCGGGUGCCAA: 0.43

Block 5
Target: CCNE1, cyclin fold, Cln2 fusion (human)
Technique: yeast growth competition, sequencing
Matrix: yeast
Notes: strong parent motif
Baseline: not given
Direction: higher = stronger binding
Measurement: normalised enrichment score
Parent: SCAPER docking peptide (human); SNARRSLNFGGST
SNARRSLNFGGSK [T13K]: 1.15
SNARVSLNFGGST [R5V]: 0.666
SNARRSLNYGGST [F9Y]: -0.214
SNARSSLNFGGST [R5S]: 0.195
SNAIRSLNFGGST [R4I]: 1.03
SNARRSLNFGDST [G11D]: 1.92
TNARRSLNFGGST [S1T]: 0.798
SNARRELNFGGST [S6E]: 0.645
SNARRSLQFGGST [N8Q]: 0.662
SNHRRSLNFGGST [A3H]: 0.712
SNARRSSNFGGST [L7S]: 0.617
SNARASLNFGGST [R5A]: 0.269
SNARRSLNFGGSW [T13W]: 0.656
SNARESLNFGGST [R5E]: 0.193
SNARRSLNFGPST [G11P]: 0.527
SNARRRLNFGGST [S6R]: 5.34
SNARRSLNFGGSC [T13C]: 1.37
SNARRSCNFGGST [L7C]: 0.524
SNGRRSLNFGGST [A3G]: 0.228
SNNRRSLNFGGST [A3N]: 0.988
SNARRSLNFIGST [G10I]: 1.04
SRARRSLNFGGST [N2R]: 0.806
SNPRRSLNFGGST [A3P]: 0.193
SNARRSLNFVGST [G10V]: -0.905
SNARRSLNFGGNT [S12N]: 2

Excerpt of the above (block 5):
SNAIRSLNFGGST [R4I]: 1.03
SNARRSLNFGGSK [T13K]: 1.15
SNARRSLQFGGST [N8Q]: 0.662
SNARASLNFGGST [R5A]: 0.269
SNARESLNFGGST [R5E]: 0.193
